Assay results pooled from the literature.
Compare with care: the assays were run in different laboratories.
Sequence of UniProt P49759 (whole entry, looked up): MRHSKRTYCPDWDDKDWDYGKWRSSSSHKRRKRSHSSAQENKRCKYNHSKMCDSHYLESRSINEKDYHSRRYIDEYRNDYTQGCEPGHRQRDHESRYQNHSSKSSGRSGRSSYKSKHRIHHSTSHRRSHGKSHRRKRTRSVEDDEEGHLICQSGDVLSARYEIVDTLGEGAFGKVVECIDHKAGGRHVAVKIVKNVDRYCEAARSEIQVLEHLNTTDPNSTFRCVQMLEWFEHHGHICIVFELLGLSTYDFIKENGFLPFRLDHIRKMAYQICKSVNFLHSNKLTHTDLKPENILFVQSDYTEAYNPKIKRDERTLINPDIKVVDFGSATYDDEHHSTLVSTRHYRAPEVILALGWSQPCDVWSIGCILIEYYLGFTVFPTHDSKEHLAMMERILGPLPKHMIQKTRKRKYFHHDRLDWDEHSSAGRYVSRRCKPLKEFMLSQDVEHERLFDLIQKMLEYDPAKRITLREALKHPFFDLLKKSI
Sequence of UniProt Q14289 (whole entry, looked up): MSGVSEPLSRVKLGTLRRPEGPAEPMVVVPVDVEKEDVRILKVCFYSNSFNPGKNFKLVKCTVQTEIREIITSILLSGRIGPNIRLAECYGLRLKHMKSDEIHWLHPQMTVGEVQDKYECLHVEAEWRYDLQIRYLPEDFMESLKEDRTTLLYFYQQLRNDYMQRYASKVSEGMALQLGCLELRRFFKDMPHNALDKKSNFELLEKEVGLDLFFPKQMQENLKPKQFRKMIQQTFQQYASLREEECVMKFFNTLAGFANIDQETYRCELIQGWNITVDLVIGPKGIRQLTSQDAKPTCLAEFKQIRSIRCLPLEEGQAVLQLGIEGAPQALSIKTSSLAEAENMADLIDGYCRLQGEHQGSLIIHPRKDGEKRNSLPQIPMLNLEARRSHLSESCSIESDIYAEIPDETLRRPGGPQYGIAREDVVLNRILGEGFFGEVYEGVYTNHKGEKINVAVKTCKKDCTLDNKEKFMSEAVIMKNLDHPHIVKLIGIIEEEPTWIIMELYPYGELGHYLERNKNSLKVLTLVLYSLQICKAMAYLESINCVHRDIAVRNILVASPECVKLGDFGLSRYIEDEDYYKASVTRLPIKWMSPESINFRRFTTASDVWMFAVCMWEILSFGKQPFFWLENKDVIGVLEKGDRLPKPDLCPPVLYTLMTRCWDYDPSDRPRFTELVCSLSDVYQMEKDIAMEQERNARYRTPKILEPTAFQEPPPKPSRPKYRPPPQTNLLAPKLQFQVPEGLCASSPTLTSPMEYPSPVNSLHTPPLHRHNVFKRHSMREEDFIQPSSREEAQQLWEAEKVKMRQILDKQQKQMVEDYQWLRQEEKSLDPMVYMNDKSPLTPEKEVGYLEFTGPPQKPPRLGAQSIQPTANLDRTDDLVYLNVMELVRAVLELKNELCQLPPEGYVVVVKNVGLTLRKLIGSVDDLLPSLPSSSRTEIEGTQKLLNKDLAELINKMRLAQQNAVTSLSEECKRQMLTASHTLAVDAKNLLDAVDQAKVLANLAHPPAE
Sequence of UniProt P00519 (whole entry, unmodified, looked up): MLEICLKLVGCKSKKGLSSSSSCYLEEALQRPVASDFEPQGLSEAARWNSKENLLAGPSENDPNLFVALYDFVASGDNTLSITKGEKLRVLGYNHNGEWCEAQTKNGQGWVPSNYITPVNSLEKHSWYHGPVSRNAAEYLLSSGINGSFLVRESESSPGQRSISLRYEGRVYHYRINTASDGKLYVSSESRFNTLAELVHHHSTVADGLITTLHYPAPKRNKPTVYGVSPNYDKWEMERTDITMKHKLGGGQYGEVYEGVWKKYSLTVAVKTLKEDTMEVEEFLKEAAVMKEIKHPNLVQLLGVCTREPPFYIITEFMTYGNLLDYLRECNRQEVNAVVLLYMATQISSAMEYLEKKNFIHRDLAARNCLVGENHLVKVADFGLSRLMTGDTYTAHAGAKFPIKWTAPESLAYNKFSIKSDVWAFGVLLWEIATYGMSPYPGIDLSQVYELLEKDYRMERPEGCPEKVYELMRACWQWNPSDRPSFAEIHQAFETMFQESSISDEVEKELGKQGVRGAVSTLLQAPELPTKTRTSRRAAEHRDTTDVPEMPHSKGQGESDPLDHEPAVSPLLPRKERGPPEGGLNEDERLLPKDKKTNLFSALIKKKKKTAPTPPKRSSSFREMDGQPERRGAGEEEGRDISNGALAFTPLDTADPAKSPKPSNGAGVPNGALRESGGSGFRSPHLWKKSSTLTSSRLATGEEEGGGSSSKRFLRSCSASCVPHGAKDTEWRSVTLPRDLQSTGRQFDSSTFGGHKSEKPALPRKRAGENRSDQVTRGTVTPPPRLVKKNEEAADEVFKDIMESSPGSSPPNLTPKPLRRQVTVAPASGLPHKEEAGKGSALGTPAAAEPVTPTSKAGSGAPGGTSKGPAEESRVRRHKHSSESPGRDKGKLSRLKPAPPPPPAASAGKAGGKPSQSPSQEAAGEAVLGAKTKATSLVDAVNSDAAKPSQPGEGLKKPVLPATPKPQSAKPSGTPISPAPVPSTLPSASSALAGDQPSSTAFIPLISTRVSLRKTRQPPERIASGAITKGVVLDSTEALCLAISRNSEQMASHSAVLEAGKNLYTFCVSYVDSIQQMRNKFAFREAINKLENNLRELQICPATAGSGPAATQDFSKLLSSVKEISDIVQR
Sequence of UniProt Q12866 (whole entry, looked up): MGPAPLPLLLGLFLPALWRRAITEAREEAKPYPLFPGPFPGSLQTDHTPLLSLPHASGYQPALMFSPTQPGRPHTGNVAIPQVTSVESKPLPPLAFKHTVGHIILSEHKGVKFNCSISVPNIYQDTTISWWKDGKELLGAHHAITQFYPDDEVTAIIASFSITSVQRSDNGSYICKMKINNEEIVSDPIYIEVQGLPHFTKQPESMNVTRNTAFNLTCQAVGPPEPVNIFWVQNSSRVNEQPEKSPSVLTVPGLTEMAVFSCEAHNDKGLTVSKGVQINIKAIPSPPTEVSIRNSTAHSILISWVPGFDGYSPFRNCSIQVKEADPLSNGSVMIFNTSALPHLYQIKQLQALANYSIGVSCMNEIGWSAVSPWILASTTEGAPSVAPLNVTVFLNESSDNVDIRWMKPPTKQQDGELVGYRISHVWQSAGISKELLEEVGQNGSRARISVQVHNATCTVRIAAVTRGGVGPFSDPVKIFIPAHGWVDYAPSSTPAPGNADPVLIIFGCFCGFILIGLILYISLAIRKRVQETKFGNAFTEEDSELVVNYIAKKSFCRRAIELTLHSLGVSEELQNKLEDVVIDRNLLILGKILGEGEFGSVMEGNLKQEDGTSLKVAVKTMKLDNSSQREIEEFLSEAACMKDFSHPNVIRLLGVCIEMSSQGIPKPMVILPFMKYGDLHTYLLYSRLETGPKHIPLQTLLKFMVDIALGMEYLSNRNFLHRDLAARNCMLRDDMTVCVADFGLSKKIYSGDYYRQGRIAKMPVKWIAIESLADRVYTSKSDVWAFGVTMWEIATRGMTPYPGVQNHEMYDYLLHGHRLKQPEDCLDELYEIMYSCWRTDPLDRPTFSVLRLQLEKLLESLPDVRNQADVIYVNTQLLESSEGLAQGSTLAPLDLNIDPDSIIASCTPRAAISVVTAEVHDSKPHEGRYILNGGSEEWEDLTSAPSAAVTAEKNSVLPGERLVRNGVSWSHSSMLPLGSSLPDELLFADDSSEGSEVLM

With Cc1ccc(N(O)N=Nc2ccc(S(=O)(=O)Nc3cc(C)on3)cc2)cc1 the inhibition was 35.3% (ABTS scavenging; 120 µg/mL).
With CC1=C(Cn2cc(CBr)nn2)C(=O)c2ccccc2C1=O the CC50 was 18.2 µM (L6; cell growth or viability).
The CC50 of CC1(CNc2nc(-c3cccs3)nc(Cl)c2-c2c(F)cc(F)cc2F)COC1 is reported as 5.55 µM (HEK293; cell growth or viability, resazurin; 48 h).
For CC1(F)CN(C(=O)Cn2c(=O)c(C(=O)NCc3ccc(Cl)cc3)cc3nccnc32)C1, the CC50 was > 40 µM (MRC5; cell growth or viability, CCK-8).
COc1cc(/C=C/C(=O)/C=C/c2ccc(O)c(OC)c2)ccc1O gave a CC50 of 3.93 µM (WRL68; cell growth or viability, MTT; 48 h).
CNc1ncc2c(/C=C/C(=O)N3CCC(OC)CC3)nn(Cc3cccc(C(F)(F)F)c3)c2n1 gave a remaining activity of 93% (PTK2B (Homo sapiens, UniProt Q14289); enzyme activity, inhibitor, radiometric; 1 µM).
For CCN(O)N=Nc1ccc(S(=O)(=O)Nc2cc(C)on2)cc1, the inhibition was 11.4% (ABTS scavenging; 60 µg/mL).
CC1=C(Cn2cc(CO)nn2)C(=O)c2ccccc2C1=O has a CC50 of 6.69 µM (L6; cell growth or viability).
For COC1=CC2=[N+](C)CCc3c[nH]c(c32)C1=O, the CC50 was 5 µM (HeLa; cell growth or viability, MTT; 72 h).
With COc1cccc(OC)c1-c1cc(C(=O)NC2(C(=O)O)C3CC4CC(C3)CC2C4)nn1-c1ccc(C(=O)N(C)CCCN(C)CCCN(C)C(=O)CN2CCN(CC(=O)[O-])CCN(CC(=O)[O-])CCN(CC(=O)[O-])CC2)cc1C(C)C.[177Lu+3] (stereo not shown) the tracer uptake was 0.7 %ID/g (HT-29 tumour model; host not given, blood; 7 days, tumour-bearing).
CCC[C@H](CC)Oc1ccc(C(=O)NCCOCCOCCOCC(=O)N[C@H](C(=O)N2C[C@H](O)C[C@H]2C(=O)NCc2ccc(-c3scnc3C)cc2)C(C)(C)C)cc1NC(=O)c1nnn(-c2cc(OC)ccc2OC)c1C gave a CC50 of > 30 µM (SNU-C4; cell growth or viability, ATP luminescence; 24 h).
With COc1cc(C)c(-c2c(C)cc(OC)c3c(=O)cc(-c4cccc(Br)c4)oc23)c2oc(-c3cccc(Br)c3)cc(=O)c12 the CC50 was > 200 µM (HS27; cell growth or viability, MTT; 24 h).
The CC50 of COC(=O)c1c(C)ncn1CC(c1c[nH]c2ccccc12)c1c[nH]c2ccccc12 is reported as > 20 µM (DH82; cell growth or viability, MTS; 24 h).
For CNCCCOc1cc(F)c(-c2c(Cl)nc(-c3cccs3)nc2N[C@H](C)C(C)C)c(F)c1, the CC50 was 1.76 µM (HEK293; cell growth or viability, resazurin; 48 h).
COc1cc(OC)c2c(=O)cc(-c3ccccc3Br)oc2c1-c1c(OC)cc(OC)c2c(=O)cc(-c3ccccc3Br)oc12 has a CC50 of > 200 µM (HS27; cell growth or viability, MTT; 24 h).
COc1cc(/C=C2\CCC/C(=C\c3ccc(O)c(OC)c3)C2=O)ccc1O has a CC50 of 6.71 µM (WRL68; cell growth or viability, MTT; 48 h).
CN(C)C(=O)CN1CCN(c2cnc3c(cc(C(=O)NCc4ccc(Cl)cc4)c(=O)n3CC(=O)N3CC(C)(F)C3)n2)C1=O gave a CC50 of > 40 µM (MRC5; cell growth or viability, CCK-8).
CC(C)(C)CNc1nc(-c2cccs2)nc(Cl)c1-c1c(F)cc(F)cc1F gave a CC50 of 40.1 µM (HEK293; cell growth or viability, resazurin; 48 h).
The CC50 of CC1(F)CN(C(=O)Cn2c(=O)c(C(=O)NCc3ccc(Cl)cc3)cc3nc(N4CCOC4=O)cnc32)C1 is reported as 33 µM (MRC5; cell growth or viability, CCK-8).
The CC50 of Fc1cc(F)c(-c2c(Cl)nc(-c3cccs3)nc2N2CCCCC2)c(F)c1 is reported as > 50 µM (HEK293; cell growth or viability, resazurin; 48 h).
For COc1cc(-c2cncc3c2CN(C)Cc2cc(N4CCNCC4)ccc2-3)cc(OC)c1OC, the remaining activity was 120% (MERTK (Homo sapiens, UniProt Q12866); enzyme activity, inhibitor; 1 µM).
The CC50 of COc1cc(OC)c2c(=O)cc(-c3ccc(C(F)(F)F)cc3)oc2c1-c1c(OC)cc(OC)c2c(=O)cc(-c3ccc(C(F)(F)F)cc3)oc12 is reported as > 200 µM (HS27; cell growth or viability, MTT; 24 h).
Nc1ccn(C[C@@H](CO)OCP(=O)(O)O)c(=O)n1 gave a CC50 of > 100 µM (ARPE-19; cell growth or viability, neutral red).
CNCCN1CCN(c2cnc3c(cc(C(=O)NCc4ccc(Cl)cc4)c(=O)n3CC(=O)N3CC(C)(F)C3)n2)C1=O has a CC50 of 23 µM (MRC5; cell growth or viability, CCK-8).
N=C(N)c1ccc(OCCCCCOc2ccc(C(=N)N)cc2)cc1 gave a CC50 of > 20 µM (DH82; cell growth or viability, MTS; 24 h).
For NC1CCN(S(=O)(=O)c2cc(C(=O)Nc3cc(F)c(F)c(F)c3)ccc2F)CC1, the CC50 was 47.6 µM (HepG2.2.15; cell growth or viability, CCK-8; 6 days).
For CC1=C(Cn2cc([Si](C)(C)C)nn2)C(=O)c2ccccc2C1=O, the CC50 was 18.2 µM (L6; cell growth or viability).
Nc1nc(-c2cccs2)nc(Cl)c1-c1c(F)cc(F)cc1F gave a CC50 of 31.6 µM (HEK293; cell growth or viability, resazurin; 48 h).
O=c1nc(N2CCN(CC3CCCCC3)CC2)sc2c([N+](=O)[O-])cc(C(F)(F)F)cc12 has a concentration of 15600 ng/mL (CD-1 mouse, plasma; intravenous, 10 mg/kg, 4.98 min).
CC(C)C(=O)Nc1nc(-c2cccs2)nc(Cl)c1-c1c(F)cc(F)cc1F has a CC50 of > 50 µM (HEK293; cell growth or viability, resazurin; 48 h).
The viability of Nc1ccn([C@@H]2O[C@H](CO)[C@@H](O)C2(F)F)c(=O)n1 is reported as 68.9% (HEK293; cell growth or viability, MTT; 1.25 µg/mL, 24 h).
NC1=CC2=NCCc3c[nH]c(c32)C1=O gave a CC50 of 0.1 µM (HeLa; cell growth or viability, MTT; 72 h).
For COc1cc(C)c(-c2c(C)cc(OC)c3c(=O)cc(-c4ccccc4)oc23)c2oc(-c3ccccc3)cc(=O)c12, the CC50 was > 200 µM (HS27; cell growth or viability, MTT; 24 h).
C=CC(=O)N1CCC(COCC(=O)N2CCN(c3nc(-c4cnc(N)nc4C(F)F)nc(N4CCOC[C@@H]4C)n3)CC2)CC1 has a remaining binding of 92% (CLK1 (Homo sapiens, UniProt P49759); binding, competition with immobilised ligand; 1 µM).
With O=C1C=C2NCCc3c[nH]c(c32)C1=O the CC50 was 50 µM (HeLa; cell growth or viability, MTT; 72 h).
The CC50 of Fc1cc(F)c(-c2c(Cl)nc(-c3cccs3)nc2NC2CCC2)c(F)c1 is reported as > 50 µM (HEK293; cell growth or viability, resazurin; 48 h).
COc1ccc(-c2cc(=O)c3c(OC)cc(C)c(-c4c(C)cc(OC)c5c(=O)cc(-c6ccc(OC)cc6)oc45)c3o2)cc1 has a CC50 of > 200 µM (HS27; cell growth or viability, MTT; 24 h).
[N-]=[N+]=N[C@]1(CO)O[C@@H](n2ccc(N)nc2=O)[C@@H](F)[C@@H]1O gave a CC50 of > 50 µM (Huh7.5; cell growth or viability, ATP luminescence; 72 h).
CSc1ccc(C(=O)/C=C/c2cc(C)c(OC(C)(C)C(=O)O)c(C)c2)cc1 gave a CC50 of 4.19 µM (LX-2; cell growth or viability, ATP luminescence; 48 h, serum-free).
CCCCC(=O)Nc1ccc(-c2ccc3ncn(CCC)c(=O)c3c2)cn1 gave a remaining binding of 98% (Tyrosine-protein kinase ABL1, non-phosphorylated (ABL1, Homo sapiens, UniProt P00519, F317I); binding, competition with immobilised ligand; 0.5 µM).
CC1=C(Cn2cc(COC3COC3)nn2)C(=O)c2ccccc2C1=O gave a CC50 of 7.1 µM (L6; cell growth or viability).
For CN1CCN(c2cnc3c(cc(C(=O)NCc4ccc(Cl)cc4)c(=O)n3CC(=O)N3CC(C)(F)C3)n2)C1=O, the CC50 was > 40 µM (MRC5; cell growth or viability, CCK-8).
COc1cccc(-c2n[nH]c(SCc3ccccn3)n2)c1OC has a concentration of 10900 ng/mL (male Sprague-Dawley rat, plasma; intravenous, 1 mg/kg, 1.98 min, single dose).
COc1cc(OC)c2c(=O)cc(-c3ccccc3)oc2c1 gave a CC50 of > 200 µM (HS27; cell growth or viability, MTT; 24 h).
With Cc1cc([C@@H](C)Nc2ccccc2C(=O)O)c2nc(N3CCC(F)(F)CC3)c(C#N)c(=O)n2c1 the remaining binding was 80% (EGFR (Homo sapiens, UniProt P00533); binding, competition with immobilised ligand; 10 µM).
The CC50 of CC1(F)CN(C(=O)Cn2c(=O)c(C(=O)NCc3ccc(Cl)cc3)cc3nc(N4CCCC4=O)cnc32)C1 is reported as 15.8 µM (MRC5; cell growth or viability).
CC(C)[C@@H](C)Nc1nc(-c2cccs2)nc(Cl)c1-c1c(F)cc(O)cc1F has a CC50 of 21 µM (HEK293; cell growth or viability, resazurin; 48 h).
With CC1(F)CN(C(=O)Cn2c(=O)c(C(=O)NCc3ccc(Cl)cc3)cc3nc(N4CCN(CC(=O)O)C4=O)cnc32)C1 the CC50 was > 40 µM (MRC5; cell growth or viability, CCK-8).
O=C1C(NCCc2c[nH]c3ccccc23)=CC2=NCCc3c[nH]c1c32 gave a CC50 of 1.25 µM (HeLa; cell growth or viability, MTT; 72 h).
COc1cc(/C=C2\CC/C(=C\c3ccc(O)c(OC)c3)C2=O)ccc1O has a CC50 of 2.16 µM (WRL68; cell growth or viability, MTT; 48 h).
With Nc1nc2c(ncn2COCCO)c(=O)[nH]1 the CC50 was > 100 µM (B-95-8; cell growth or viability, ATP luminescence; 5 days).
With CCOC(=O)c1cn(CC(c2cn(C)c3ccc(C)cc23)c2cn(C)c3ccc(C)cc23)c(C)c1C(=O)OC the CC50 was > 20 µM (DH82; cell growth or viability, MTS; 24 h).

Some of these lines once more:
With CC1=C(Cn2cc(CBr)nn2)C(=O)c2ccccc2C1=O the CC50 was 18.2 µM (L6; cell growth or viability).
With Cc1cc([C@@H](C)Nc2ccccc2C(=O)O)c2nc(N3CCC(F)(F)CC3)c(C#N)c(=O)n2c1 the remaining binding was 80% (EGFR (Homo sapiens, UniProt P00533); binding, competition with immobilised ligand; 10 µM).
CC1=C(Cn2cc(CO)nn2)C(=O)c2ccccc2C1=O has a CC50 of 6.69 µM (L6; cell growth or viability).
For CN1CCN(c2cnc3c(cc(C(=O)NCc4ccc(Cl)cc4)c(=O)n3CC(=O)N3CC(C)(F)C3)n2)C1=O, the CC50 was > 40 µM (MRC5; cell growth or viability, CCK-8).
